Measured values from different studies.
Compare with care: the assays were run in different laboratories. ± marks the error that the study gave.
B1: colicin E1 fragment 1–120; chain METAVAYYKDGVPYDDKGQVIITLLNGTPDGSGSGGGGGKGGSKSESSAAIHATAKWSTAQLKKTQAEQAARAKAAAEAQAKAKANRDALTQRLKDIVNEALRHNASRTPSATELAHANN

Molecule | test | system | conditions | quantity | value
N=C(N)NCCC[C@@H]1NC(=O)[C@H](CCCCNC(=S)Nc2ccc(C[C@H]3CN(CC(=O)O)CCN(CC(=O)O)CCN3CC(=O)O)cc2)NC(=O)[C@@H](Cc2ccc(O)cc2)NC(=O)[C@H](CC(=O)O)NC(=O)CNC1=O [gallium-68 labelled] | PET | SCID mouse, PC-3 tumour | 25 to 30 min p.i. | tumour uptake | 3.24 ± 0.41 %ID/g
Cc1ccccc1NC(=O)Nc1ccc(CC(=O)N[C@@H](CCCCNC(=O)/C=C/c2cccnc2)C(=O)N[C@@H](CCCC(=O)O)C(=O)NC2(C(=O)NCCOCCOCCOCCOCC(=O)N[C@@H](CCCCNC(=S)Nc3ccc(C[C@H]4CN(CC(=O)O)CCN(CC(=O)O)CCN4CC(=O)O)cc3)C(N)=O)CCCCC2)cc1 [fluorine-18 labelled] |  | female C57BL/6 mice, B16-F10 tumour, liver | intravenous, 1 h | tissue uptake | 20.1 ± 2.6 %ID/g
CCCCCCCCCCCCCCCCCCSC1CC(=O)N(CCC(=O)NCCOCCOCCOCCOCCOCCOCCOCCOCCOCCOCCOCCOCCOCCOCCOCCOCCOCCOCCOCCOCCOCCOCCOCCOCCC(=O)NC(COCCC(=O)NCCOCCOCCOCCOCCC(=O)NCCCC[C@@H](NC(=O)CNC(=O)[C@@H](CC(C)C)NC(=O)[C@@H](CCC(=O)O)NC(=O)[C@H]2CSSC[C@@H](NC(=O)[C@H]3CCCN3C(=O)[C@@H](Cc3c[nH]cn3)NC(C)=O)C(=O)N[C@H](CC(=O)O)C(=O)N[C@H](Cc3ccc(O)cc3)C(=O)N3CCC[C@@H]3C(=O)N[C@H](CCC(=O)O)C(=O)N[C@H](Cc3c[nH]c4ccccc34)C(=O)N[C@H](CCC(N)=O)C(=O)N[C@H](Cc3c[nH]c4ccccc34)C(=O)N[C@H](CC(C)C)C(=O)N2)C(N)=O)(COCCC(=O)NCCOCCOCCOCCOCCC(=O)NCCCC[C@@H](NC(=O)CNC(=O)[C@@H](CC(C)C)NC(=O)[C@@H](CCC(=O)O)NC(=O)[C@H]2CSSC[C@@H](NC(=O)[C@H]3CCCN3C(=O)[C@@H](Cc3c[nH]cn3)NC(C)=O)C(=O)N[C@H](CC(=O)O)C(=O)N[C@H](Cc3ccc(O)cc3)C(=O)N3CCC[C@@H]3C(=O)N[C@H](CCC(=O)O)C(=O)N[C@H](Cc3c[nH]c4ccccc34)C(=O)N[C@H](CCC(N)=O)C(=O)N[C@H](Cc3c[nH]c4ccccc34)C(=O)N[C@H](CC(C)C)C(=O)N2)C(N)=O)COCCC(=O)NCCOCCOCCOCCOCCC(=O)NCCCC[C@@H](NC(=O)CNC(=O)[C@@H](CC(C)C)NC(=O)[C@@H](CCC(=O)O)NC(=O)[C@H]2CSSC[C@@H](NC(=O)[C@H]3CCCN3C(=O)[C@@H](Cc3c[nH]cn3)NC(C)=O)C(=O)N[C@H](CC(=O)O)C(=O)N[C@H](Cc3ccc(O)cc3)C(=O)N3CCC[C@@H]3C(=O)N[C@H](CCC(=O)O)C(=O)N[C@H](Cc3c[nH]c4ccccc34)C(=O)N[C@H](CCC(N)=O)C(=O)N[C@H](Cc3c[nH]c4ccccc34)C(=O)N[C@H](CC(C)C)C(=O)N2)C(N)=O)C1=O (stereo partly shown) |  | Sprague Dawley rat, plasma | intravenous, 1.0 mg/kg, median, together with: Palm-PIE12-trimer 1.2 mg/kg | C0 | 900 nM
COc1cccc2c1C(=O)c1c(O)c3c(c(O)c1C2=O)C[C@@](O)(C(=O)CO)C[C@@H]3O[C@H]1C[C@H](NC(=O)[C@H](CC(C)C)NC(=O)[C@H](C)NC(=O)[C@H](CC(C)C)NC(=O)CCNC(=O)CCC(=O)O)[C@H](O)[C@H](C)O1 |  | mouse, E0771 tumour-bearing, liver | intravenous, 92 µmol/kg | AUC | 48 µM·h
N=C(N)NCCC[C@@H]1NC(=O)[C@H](CCCCNC(=O)CNC(=O)CNC(=O)CNC(=O)CC[C@H](NC(=O)CCOCCOCCOCCOCCNC(=O)c2ccc(NN)nc2)C(=O)NCC(=O)NCC(=O)NCC(=O)NCCCC[C@@H]2NC(=O)[C@@H](Cc3ccccc3)NC(=O)[C@H](CC(=O)O)NC(=O)CNC(=O)[C@H](CCCNC(=N)N)NC2=O)NC(=O)[C@@H](Cc2ccccc2)NC(=O)[C@H](CC(=O)O)NC(=O)CNC1=O [technetium-99m labelled] | γ-counting | female athymic nude mice, U-87 MG xenograft, eyes | intravenous, 0.5 h | tissue uptake | 2.04 ± 0.15 %ID/g
B1 (colicin E1 fragment 1–120) | far-UV CD | peptide, 50 mM sodium phosphate |  | helical content | 33 ± 8%
CC[C@H](C)[C@H](NC(=O)[C@H](Cc1c[nH]cn1)NC(=O)[C@@H]1CSSC[C@H](NC(=O)[C@H](Cc2c[nH]cn2)NC(=O)[C@H](Cc2ccccc2)NC(=O)CCN(CCN)CCN)C(=O)N2C[C@H](O)C[C@H]2C(=O)N[C@@H](Cc2ccc(O)c(Cl)c2)C(=O)N[C@@H](CC(=O)O)C(=O)N[C@@H](CC(C)C)C(=O)N1)C(=O)N[C@@H](CC(C)C)C(=O)NCc1ccc(CNC(=O)CCN(CCN)CCN)cc1 [technetium-99m labelled] | biodistribution | Sprague-Dawley rat, male, crush model, liver | 120 min | liver uptake | 3.2 %ID/g
N=C(N)NCCC[C@@H]1NC(=O)[C@H](CCCCNC(=O)CCOCCOCCOCCOCCNC(=O)CC[C@H](NC(=O)c2ccc(NN)nc2)C(=O)NCCOCCOCCOCCOCCC(=O)NCCCC[C@@H]2NC(=O)[C@@H](Cc3ccccc3)NC(=O)[C@H](CC(=O)O)NC(=O)CNC(=O)[C@H](CCCNC(=N)N)NC2=O)NC(=O)[C@@H](Cc2ccccc2)NC(=O)[C@H](CC(=O)O)NC(=O)CNC1=O [technetium-99m labelled] |  | athymic nude mouse, U-87 MG xenograft | 60 min, together with: excess E[c(RGDfK)]2 about 14 mg/kg | tumour uptake | 2.43 ± 0.07 %ID/g
melittin | CD titration | POPC 50% POPG 50% vesicles | pH 7.0, 60 °C | free energy of partitioning | -8.01 kcal/mol
CC(=O)N(O)CCCCCNC(=O)CCC(=O)N(O)CCCCCNC(=O)CCC(=O)N(O)CCCCCNC(=S)Nc1ccc(NC(=S)NCCOCCOCCOCCOCCC(=O)N[C@@H](CCC(=O)NCCOCCOCCOCCOCCC(=O)NCCCC[C@@H]2NC(=O)[C@@H](Cc3ccccc3)NC(=O)[C@H](CC(=O)O)NC(=O)CNC(=O)[C@H](CCCNC(=N)N)NC2=O)C(=O)NCCOCCOCCOCCOCCC(=O)NCCCC[C@@H]2NC(=O)[C@@H](Cc3ccccc3)NC(=O)[C@H](CC(=O)O)NC(=O)CNC(=O)[C@H](CCCNC(=N)N)NC2=O)cc1 [zirconium-89 labelled] |  | athymic nude mice female tumour-bearing, tumor | intravenous, dose not given, 4 h, together with: unlabelled c(RGDfK) 300 µg | tissue uptake | 0.4 ± 0.01 %ID/g
CCN1C(=CC=CC=CC2=[N+](CCCCCC(=O)NCCCC[C@H](NC(=O)CN3CCN(CC(=O)O)CCN(CC(=O)O)CCN(CC(=O)O)CC3)C(=O)NCC(=O)NCC(=O)N[C@@H](Cc3ccc(O)cc3)C(=O)NCC(=O)N[C@H]3CSSC[C@@H]4NC(=O)CNC(=O)[C@H](C)NC(=O)[C@H](CC(C)C)NC(=O)[C@@H]5CSSC[C@@H](C(=O)NCC(N)=O)NC(=O)[C@H](Cc6ccccc6)NC(=O)CNC(=O)[C@H](CC(N)=O)NC(=O)[C@@H]6CCCN6C(=O)CNC(=O)[C@H](CSSC[C@H](NC(=O)[C@H](CO)NC(=O)[C@H]([C@@H](C)O)NC(=O)[C@@H]6CCCN6C(=O)[C@H](C)NC(=O)[C@H](Cc6c[nH]c7ccccc67)NC(=O)[C@H](CC(=O)O)NC(=O)CNC(=O)[C@H](CCCNC(=N)N)NC(=O)CNC(=O)[C@H](CCC(N)=O)NC(=O)[C@@H]6CCCN6C3=O)C(=O)N[C@@H](CO)C(=O)N[C@@H](CCC(N)=O)C(=O)N[C@@H](CC(=O)O)C(=O)N[C@@H](CO)C(=O)N[C@@H](CC(=O)O)C(=O)N5)NC(=O)[C@H](C(C)C)NC4=O)c3ccc4c(S(=O)(=O)[O-])cc(S(=O)(=O)O)cc4c3C2(C)C)C(C)(C)c2c1ccc1c(S(=O)(=O)O)cc(S(=O)(=O)O)cc21 (single isomer, unassigned) [copper-64 labelled] | microPET | female athymic nude mouse, U-87 MG xenograft, tumour | intravenous, 100 µCi, 24 h | tumour uptake | 5.02 ± 0.05 %ID/g
COc1cccc2c1C(=O)c1c(O)c3c(c(O)c1C2=O)C[C@@](O)(C(=O)CO)C[C@@H]3O[C@H]1C[C@H](NC(=O)[C@@H]2CCCN2C(=O)CNC(=O)[C@H](CC(C)C)NC(=O)[C@H](C)NC(=O)CP(=O)(O)O)[C@H](O)[C@H](C)O1 |  | mouse, E0771 tumour-bearing, tumor | intravenous, 92 µmol/kg | AUC | 16.9 µM·h
N=C(N)NCCC[C@@H]1NC(=O)[C@H](CCCCNC(=O)[C@H](CC(=O)O)NC(=O)[C@H](CC(=O)O)NC(=O)[C@H](CC(=O)O)NC(=O)CC[C@H](NC(=O)CCOCCOCCOCCOCCNC(=O)c2ccc(NN)nc2)C(=O)N[C@@H](CC(=O)O)C(=O)N[C@@H](CC(=O)O)C(=O)N[C@@H](CC(=O)O)C(=O)NCCCC[C@@H]2NC(=O)[C@@H](Cc3ccccc3)NC(=O)[C@H](CC(=O)O)NC(=O)CNC(=O)[C@H](CCCNC(=N)N)NC2=O)NC(=O)[C@@H](Cc2ccccc2)NC(=O)[C@H](CC(=O)O)NC(=O)CNC1=O [technetium-99m labelled] | γ-counting | female athymic nude mice, U-87 MG xenograft, kidneys | intravenous, 0.5 h | tissue uptake | 24.7 ± 2.4 %ID/g

A few entries again:
Molecule | test | system | conditions | quantity | value
CC[C@H](C)[C@H](NC(=O)[C@H](Cc1c[nH]cn1)NC(=O)[C@@H]1CSSC[C@H](NC(=O)[C@H](Cc2c[nH]cn2)NC(=O)[C@H](Cc2ccccc2)NC(=O)CCN(CCN)CCN)C(=O)N2C[C@H](O)C[C@H]2C(=O)N[C@@H](Cc2ccc(O)c(Cl)c2)C(=O)N[C@@H](CC(=O)O)C(=O)N[C@@H](CC(C)C)C(=O)N1)C(=O)N[C@@H](CC(C)C)C(=O)NCc1ccc(CNC(=O)CCN(CCN)CCN)cc1 [technetium-99m labelled] | biodistribution | Sprague-Dawley rat, male, crush model, liver | 120 min | liver uptake | 3.2 %ID/g
